Measurements from different studies.
Each line is one published result; not all experiments were run side by side.
JAK1 JH1: Tyrosine-protein kinase JAK1, JH1 (JAK1, Homo sapiens, UniProt P23458)
JAK1 JH1 kinase domain: Tyrosine-protein kinase JAK1, JH1 kinase domain (JAK1, Homo sapiens, UniProt P23458)
JAK1: Tyrosine-protein kinase JAK1 (JAK1, Homo sapiens, UniProt P23458)
JAK1 JH2: Tyrosine-protein kinase JAK1, JH2 (JAK1, Homo sapiens, UniProt P23458)

| Structure (SMILES) | target | test | test system | conditions | scale | endpoint | result |
| --- | --- | --- | --- | --- | --- | --- | --- |
| O=C(Cc1ccc(OCc2ccccc2)cc1)NC1(C(=O)O)CCN(C(=O)c2ccc(-c3cccc(Cl)c3)cc2)CC1 | JAK1 JH1 | enzyme activity, inhibitor | – | 10 µM | – | activity vs control | 107% |
| CS(=O)(=O)Nc1cccc(-c2csc3cnc(Nc4ccc(N5CCN(CCCCCOc6cccc7c6C(=O)N(C6CCC(=O)NC6=O)C7=O)CC5)cc4)nc23)c1 (stereo not shown) | JAK1 JH1 kinase domain | probe labelling, inhibitor, KiNativ chemoproteomics | MOLT-4 | 1 µM | – | inhibition | 94.3% |
| C=CC(=O)N1CCc2ccc(-n3c(=O)ccc4cnc5ccc(-c6cnn(C)c6)cc5c43)cc21 | JAK1 JH1 kinase domain | KINOMEscan | – | 1 µM | reference: DMSO control | remaining binding | 97% |
| COc1c(Cl)cccc1Nc1c(-c2ccncc2C#C[C@@]2(C)CCCN2C(=O)/C=C/CN(C)C)[nH]c2c1C(=O)NCC2 | JAK1 JH1 | cell-free assay, competition with immobilised ligand | – | 3 µM | – | remaining binding | 100% |
| CC(C)=CC1OC(C)(C)C2C=C3C(=O)C(Cl)=CC(O)C3C3C(O)C4OC4C(=O)C132 (stereo not shown) | JAK1 JH1 | cell-free assay, competition with immobilised ligand | – | 10 µM | – | remaining binding | 78% |
| COc1ccc(NC(=O)Nc2ccc3c(c2)C(=O)N(C(C)CO)CC(C)C(CN(C)Cc2ccc4c(c2)OCO4)O3)cc1 (stereo not shown) | JAK1 | kinase activity, KinaseProfiler | – | 0.03 µM, species human | reference: control | remaining activity | 95% |
| Cc1c[nH]c2nccc(-c3ccc(C(=O)N[C@@H]4c5c(F)cc(C(F)F)cc5C[C@@H]4O)cn3)c12 | JAK1 JH2 | binding, competition with immobilised ligand | – | 3 µM | – | remaining binding | 3.7% |
| Cc1nc2c(F)cc(-c3nc(Nc4ccc(CNC(=O)CCCCCCC(=O)NO)cc4)ncc3F)cc2n1C(C)C | JAK1 JH1 | enzyme activity, inhibitor | – | 1 µM | – | inhibition | 97% |
| Cc1ccc(-c2c(/C=C(\C#N)C(=O)NC(C)C)n(CCCO)c3ncnc(N)c23)cc1 | JAK1 JH1 | cell-free assay, competition with immobilised ligand | – | 1 µM | – | remaining binding | 100% |
| C=CC(=O)N1CCCC(n2c(=O)c3ncccc3n(Cc3ccc(Oc4ccccc4)cc3)c2=O)C1 (stereo not shown) | JAK1 JH1 | cell-free assay, competition with immobilised ligand | – | 1 µM | – | remaining binding | 96% |
| NC(=O)C[C@H]1CCc2sc3ncnc(O[C@H]4CC[C@H](N5CCOCC5)CC4)c3c21 | JAK1 | enzyme activity, inhibitor | – | 10 µM | – | inhibition | -8% |
| C=CC(=O)N1Cc2nc(-c3cc(-c4cc(Cl)cnc4Cl)c(F)cc3F)n(-c3ccncn3)c2C1 | JAK1 | cell-free assay, inhibitor | – | 1 µM | – | inhibition | -0.3% |
| COc1cc(Nc2nccc(-c3cnn4nc(OC)ccc34)n2)cc(C(F)(F)F)c1 | JAK1 JH1 | binding, competition with immobilised ligand | – | 1 µM | – | remaining binding | 100% |
| C=CC(=O)Nc1cccc(-c2cnc3[nH]cc(C(=O)NC(C)(C)C)c3n2)c1 | JAK1 | enzyme activity, inhibitor | – | 0.1 µM | – | inhibition | 4% |
| Cc1cnc2nc1Nc1cccc(c1)COC/C=C/COCc1cc(ccc1OCCN1CCOCC1)N2 | JAK1 JH1 | cell-free assay | – | 0.1 µM | – | remaining signal | 8.5% |
| CCN1CCN(Cc2ccc(C(=O)Nc3ccc(C)c(NCc4cnc5[nH]ccc5c4OC)c3)cc2C(F)(F)F)CC1 | JAK1 JH2 | binding, competition with immobilised ligand | – | 1 µM | – | remaining binding | 100% |
| Cc1cccc(O[C@H]2CCC[C@@H](C(C)CNCc3ccncc3)C2)c1 (relative stereo) | JAK1 | kinase activity, kinome panel screening | – | 1 µM | – | inhibition | -3% |
| COc1ccc(C(=O)/C=C/c2ccccc2-c2c[nH]c3ccc(C#N)cc23)c(O)c1 | JAK1 | enzyme activity, inhibitor | – | 20 µM | – | inhibition | -1% |
| CCn1cc(C(=O)O)c(=O)c2c(N)c(F)c(NC3CCCCC3)cc21 | JAK1 JH1 kinase domain | kinase activity | – | 0.1 µM, with: ATP at Km | – | inhibition | -2.6% |
| CNC1C[S+]2CC[S+]3CC[S+](C1)[Ru-4]321([N]=C=S)[n]2c3ccc(OC)cc3c3c4c(c5cc(F)c[n+]1c5c32)C(=O)NC4=O (stereo not shown) | JAK1 JH1 kinase domain | KinomeScan | – | 0.1 µM | reference: untreated | remaining binding | 94% |
| Nc1ncc2c(n1)-c1c([nH]c3ccc(C4=CCOCC4)cc13)CCC2 | JAK1 JH2 | binding, competition with immobilised ligand | – | 1 µM | – | remaining binding | 92% |
| CNC(=O)C1CCN(c2cc(C)c(F)cc2NC(=O)c2ccc(-c3cc(O)ccc3C)c(C)c2)CC1 | JAK1 JH2 | binding, competition with immobilised ligand | – | 1 µM | – | remaining binding | 100% |

Excerpt of the above:
| Structure (SMILES) | target | test | test system | conditions | scale | endpoint | result |
| --- | --- | --- | --- | --- | --- | --- | --- |
| Cc1cccc(O[C@H]2CCC[C@@H](C(C)CNCc3ccncc3)C2)c1 (relative stereo) | JAK1 | kinase activity, kinome panel screening | – | 1 µM | – | inhibition | -3% |
| Cc1cnc2nc1Nc1cccc(c1)COC/C=C/COCc1cc(ccc1OCCN1CCOCC1)N2 | JAK1 JH1 | cell-free assay | – | 0.1 µM | – | remaining signal | 8.5% |
| COc1ccc(C(=O)/C=C/c2ccccc2-c2c[nH]c3ccc(C#N)cc23)c(O)c1 | JAK1 | enzyme activity, inhibitor | – | 20 µM | – | inhibition | -1% |
